# Published values pooled from the literature.
# Numbered parts are unrelated; each lists some results of a single study. “And” joins repeats or separate records; there may be more than shown.
# UniProt O94806, sequence (whole entry, looked up): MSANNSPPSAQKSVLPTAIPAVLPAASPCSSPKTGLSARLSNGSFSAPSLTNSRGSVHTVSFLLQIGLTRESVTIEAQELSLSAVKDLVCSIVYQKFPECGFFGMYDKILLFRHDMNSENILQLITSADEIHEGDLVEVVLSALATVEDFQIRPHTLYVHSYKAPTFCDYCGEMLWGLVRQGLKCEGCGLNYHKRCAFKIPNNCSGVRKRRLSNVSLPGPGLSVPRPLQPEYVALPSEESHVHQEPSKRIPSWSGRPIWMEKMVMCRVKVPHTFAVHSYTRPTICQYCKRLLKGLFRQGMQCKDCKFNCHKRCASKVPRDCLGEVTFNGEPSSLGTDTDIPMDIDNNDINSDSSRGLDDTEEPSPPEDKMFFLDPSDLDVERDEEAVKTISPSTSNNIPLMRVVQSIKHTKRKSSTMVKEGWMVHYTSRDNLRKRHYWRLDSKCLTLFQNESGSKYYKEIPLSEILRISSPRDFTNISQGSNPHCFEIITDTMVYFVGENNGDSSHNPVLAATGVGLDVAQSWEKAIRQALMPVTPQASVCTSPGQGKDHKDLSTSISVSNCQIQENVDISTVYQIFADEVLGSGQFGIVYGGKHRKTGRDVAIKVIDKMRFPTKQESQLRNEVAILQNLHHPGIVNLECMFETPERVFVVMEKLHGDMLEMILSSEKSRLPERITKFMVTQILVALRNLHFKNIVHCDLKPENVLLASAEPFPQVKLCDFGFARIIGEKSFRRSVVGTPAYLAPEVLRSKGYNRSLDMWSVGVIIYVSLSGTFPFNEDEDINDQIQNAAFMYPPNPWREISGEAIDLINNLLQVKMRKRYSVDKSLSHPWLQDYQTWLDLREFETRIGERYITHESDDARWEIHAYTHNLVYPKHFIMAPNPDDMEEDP
# UniProt Q96BR1, sequence (whole entry, looked up): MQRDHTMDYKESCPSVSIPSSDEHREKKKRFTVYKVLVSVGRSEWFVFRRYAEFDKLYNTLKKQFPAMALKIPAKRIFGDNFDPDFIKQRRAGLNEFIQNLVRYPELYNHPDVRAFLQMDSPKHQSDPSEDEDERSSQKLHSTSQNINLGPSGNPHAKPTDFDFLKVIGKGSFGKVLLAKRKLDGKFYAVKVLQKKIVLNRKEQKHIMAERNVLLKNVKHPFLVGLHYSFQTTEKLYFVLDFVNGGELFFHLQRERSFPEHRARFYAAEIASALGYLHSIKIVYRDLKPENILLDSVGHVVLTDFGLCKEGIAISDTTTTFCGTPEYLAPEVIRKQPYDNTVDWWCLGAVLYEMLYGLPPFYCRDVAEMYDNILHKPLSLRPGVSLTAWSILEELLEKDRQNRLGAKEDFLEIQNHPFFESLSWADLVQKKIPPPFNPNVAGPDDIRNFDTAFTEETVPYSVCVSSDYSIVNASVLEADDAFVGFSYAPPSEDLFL
# UniProt Q99986, sequence (whole entry, looked up): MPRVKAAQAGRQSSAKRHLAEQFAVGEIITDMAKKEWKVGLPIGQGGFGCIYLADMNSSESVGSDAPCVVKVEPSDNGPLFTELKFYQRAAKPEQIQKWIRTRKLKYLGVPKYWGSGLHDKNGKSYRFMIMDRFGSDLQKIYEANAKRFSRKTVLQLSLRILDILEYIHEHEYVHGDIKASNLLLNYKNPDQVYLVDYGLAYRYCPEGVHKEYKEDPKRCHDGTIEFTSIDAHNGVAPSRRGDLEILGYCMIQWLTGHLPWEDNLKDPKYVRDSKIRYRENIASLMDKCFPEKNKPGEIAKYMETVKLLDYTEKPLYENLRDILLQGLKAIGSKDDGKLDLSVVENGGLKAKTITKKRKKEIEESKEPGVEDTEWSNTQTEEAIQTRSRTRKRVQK
# UniProt Q2M2I8, sequence (whole entry, looked up): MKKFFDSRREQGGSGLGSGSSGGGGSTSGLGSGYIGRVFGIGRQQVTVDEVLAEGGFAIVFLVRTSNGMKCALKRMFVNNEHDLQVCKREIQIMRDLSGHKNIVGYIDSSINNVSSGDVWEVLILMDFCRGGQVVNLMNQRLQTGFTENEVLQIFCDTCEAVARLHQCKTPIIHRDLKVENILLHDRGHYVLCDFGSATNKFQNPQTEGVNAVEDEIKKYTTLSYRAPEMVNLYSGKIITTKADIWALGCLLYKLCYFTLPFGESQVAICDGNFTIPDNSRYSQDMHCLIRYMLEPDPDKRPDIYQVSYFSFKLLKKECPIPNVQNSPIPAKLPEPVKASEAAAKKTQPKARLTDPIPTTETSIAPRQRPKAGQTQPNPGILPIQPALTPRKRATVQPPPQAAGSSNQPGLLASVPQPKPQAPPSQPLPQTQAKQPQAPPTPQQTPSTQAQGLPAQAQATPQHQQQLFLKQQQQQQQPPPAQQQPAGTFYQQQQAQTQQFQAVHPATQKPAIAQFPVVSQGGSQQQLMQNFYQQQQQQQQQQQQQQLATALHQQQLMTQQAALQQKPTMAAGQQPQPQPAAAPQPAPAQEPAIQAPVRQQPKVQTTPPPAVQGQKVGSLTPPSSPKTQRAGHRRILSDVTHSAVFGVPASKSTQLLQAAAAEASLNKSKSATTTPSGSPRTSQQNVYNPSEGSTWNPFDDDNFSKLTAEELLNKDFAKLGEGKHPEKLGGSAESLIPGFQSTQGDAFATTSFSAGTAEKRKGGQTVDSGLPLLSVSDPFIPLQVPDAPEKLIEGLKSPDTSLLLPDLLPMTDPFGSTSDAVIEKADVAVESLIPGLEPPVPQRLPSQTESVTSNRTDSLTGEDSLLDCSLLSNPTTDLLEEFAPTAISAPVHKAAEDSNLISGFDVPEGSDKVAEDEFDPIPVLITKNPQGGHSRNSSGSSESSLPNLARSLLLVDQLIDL
# UniProt P29597, sequence (whole entry, looked up): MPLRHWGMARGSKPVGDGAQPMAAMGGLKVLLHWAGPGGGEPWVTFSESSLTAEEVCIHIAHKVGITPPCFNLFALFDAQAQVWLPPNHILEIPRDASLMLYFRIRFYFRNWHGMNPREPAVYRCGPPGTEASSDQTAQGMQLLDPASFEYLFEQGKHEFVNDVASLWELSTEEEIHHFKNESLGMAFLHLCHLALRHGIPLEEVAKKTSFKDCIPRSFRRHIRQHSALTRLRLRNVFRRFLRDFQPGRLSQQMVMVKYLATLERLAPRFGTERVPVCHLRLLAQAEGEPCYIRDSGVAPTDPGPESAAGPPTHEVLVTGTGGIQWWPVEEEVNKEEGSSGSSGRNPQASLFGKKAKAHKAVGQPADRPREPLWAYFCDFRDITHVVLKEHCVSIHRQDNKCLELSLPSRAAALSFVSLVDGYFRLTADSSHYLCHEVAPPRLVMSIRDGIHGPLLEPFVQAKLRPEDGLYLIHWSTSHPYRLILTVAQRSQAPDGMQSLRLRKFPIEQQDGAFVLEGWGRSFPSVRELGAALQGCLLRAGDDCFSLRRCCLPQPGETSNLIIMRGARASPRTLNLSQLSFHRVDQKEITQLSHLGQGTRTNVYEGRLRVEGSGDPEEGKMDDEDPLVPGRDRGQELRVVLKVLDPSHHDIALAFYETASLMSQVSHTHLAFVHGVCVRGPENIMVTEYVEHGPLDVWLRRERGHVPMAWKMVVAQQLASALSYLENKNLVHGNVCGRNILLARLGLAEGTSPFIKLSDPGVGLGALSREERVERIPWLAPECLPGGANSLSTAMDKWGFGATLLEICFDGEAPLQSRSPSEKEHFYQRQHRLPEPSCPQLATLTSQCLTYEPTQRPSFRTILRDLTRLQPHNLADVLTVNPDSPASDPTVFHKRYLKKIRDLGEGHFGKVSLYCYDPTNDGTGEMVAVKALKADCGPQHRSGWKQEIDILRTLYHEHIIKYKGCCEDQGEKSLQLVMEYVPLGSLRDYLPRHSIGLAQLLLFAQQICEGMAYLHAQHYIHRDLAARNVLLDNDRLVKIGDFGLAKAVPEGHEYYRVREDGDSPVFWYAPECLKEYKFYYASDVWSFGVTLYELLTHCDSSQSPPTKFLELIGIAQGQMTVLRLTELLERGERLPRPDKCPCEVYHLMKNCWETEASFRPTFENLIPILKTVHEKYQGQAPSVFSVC
# UniProt P08631, sequence (whole entry, looked up): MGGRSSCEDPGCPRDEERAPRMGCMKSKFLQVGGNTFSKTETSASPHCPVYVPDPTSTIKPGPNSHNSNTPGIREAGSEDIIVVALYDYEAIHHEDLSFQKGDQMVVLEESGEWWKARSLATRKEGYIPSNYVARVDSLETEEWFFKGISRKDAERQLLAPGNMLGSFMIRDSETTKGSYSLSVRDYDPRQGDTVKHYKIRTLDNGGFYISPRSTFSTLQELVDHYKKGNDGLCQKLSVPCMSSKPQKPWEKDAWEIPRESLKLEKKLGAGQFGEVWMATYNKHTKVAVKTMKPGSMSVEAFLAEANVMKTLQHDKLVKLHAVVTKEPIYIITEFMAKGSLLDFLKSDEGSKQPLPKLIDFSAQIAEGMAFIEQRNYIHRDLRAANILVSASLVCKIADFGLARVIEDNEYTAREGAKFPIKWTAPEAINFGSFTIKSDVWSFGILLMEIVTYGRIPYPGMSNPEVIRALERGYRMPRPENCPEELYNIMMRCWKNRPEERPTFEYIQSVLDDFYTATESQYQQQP

# Block 1
# Cell line: mouse MPNST tumor cells
# Method: high-content immunofluorescence imaging
# Measured: nuclear SOX9
# Tested at: 10 µM
# Time: 12 h
# Setting: mean of 2 replicates
# Baseline: DMSO control
# Direction: higher = more nuclear SOX9
SMILES,nuclear SOX9 intensity
COC[C@H](C)Oc1cc(O[C@@H](C)Cc2ccccc2)cc(C(=O)Nc2ccc(C(=O)O)cn2)c1,132 % of DMSO
CO[C@H]1C[C@H](O[C@H]2[C@H](C)[C@@H](O[C@@H]3O[C@H](C)C[C@H](N(C)C)[C@H]3OC(C)=O)[C@@H](C)C[C@@]3(CO3)C(=O)[C@H](C)[C@@H](OC(C)=O)[C@@H](C)[C@@H](C)OC(=O)[C@@H]2C)O[C@@H](C)[C@@H]1OC(C)=O,107 % of DMSO
COc1ccc(CCNCc2ccc(OCc3ccc(Cl)nc3)c(OC)c2)cc1OC,132 % of DMSO
Cc1csc(NC(=O)c2cc(F)cc(Oc3cncnc3)c2)n1,92.3 % of DMSO
Cc1ncc([N+](=O)[O-])n1CC(C)O (centres unmarked),99.5 % of DMSO
CC(C)C[C@@H](C(=O)N[C@H](C(=O)OC1CCCC1)c1ccccc1)[C@H](O)C(=O)NO,142 % of DMSO
CCN(C(=O)c1ccccc1OC)c1cc2c(cc1N1CCNCC1C)n(C)c(=O)n2C (centres unmarked),93.7 % of DMSO
O=c1cc(N2CCNCC2)oc2c(-c3ccccc3)cccc12,115 % of DMSO
O=C(Nc1ccccc1)N1CCN(c2nc(-c3ccccc3)ns2)CC1,104 % of DMSO
CCCN(CCC)S(=O)(=O)c1ccc(C(=O)O)cc1,86 % of DMSO and 91.7 % of DMSO and 101 % of DMSO
CC(C)[C@H]1CC[C@H](C(=O)N[C@H](Cc2ccccc2)C(=O)O)CC1,90.3 % of DMSO and 98 % of DMSO and 92.1 % of DMSO
CC(C)CCn1c(CN2CCN(C(=O)C3CC3)CC2)nc2c1c(=O)n(C)c(=O)n2C,98.1 % of DMSO

# Block 2
# Target: Calcium/calmodulin-dependent protein kinase type II subunit alpha (CAMK2A, Homo sapiens, UniProt Q9UQM7)
# UniProt Q9UQM7, sequence (whole entry, looked up): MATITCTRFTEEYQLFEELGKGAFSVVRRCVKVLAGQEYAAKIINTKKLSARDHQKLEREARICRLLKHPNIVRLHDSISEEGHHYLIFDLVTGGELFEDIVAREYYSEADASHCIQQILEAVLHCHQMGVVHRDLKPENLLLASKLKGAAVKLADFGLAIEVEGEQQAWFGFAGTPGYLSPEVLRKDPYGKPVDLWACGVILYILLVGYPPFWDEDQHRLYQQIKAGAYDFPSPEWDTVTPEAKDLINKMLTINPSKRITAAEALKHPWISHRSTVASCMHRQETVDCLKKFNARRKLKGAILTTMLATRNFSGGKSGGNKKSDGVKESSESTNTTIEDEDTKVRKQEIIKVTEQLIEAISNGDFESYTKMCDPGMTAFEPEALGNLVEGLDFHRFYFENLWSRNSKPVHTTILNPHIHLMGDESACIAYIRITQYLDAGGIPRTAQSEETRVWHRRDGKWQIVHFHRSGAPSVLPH
# Read-out: enzyme activity
# Mode: inhibitor
# Tested at: 10 µM
Structure (SMILES),inhibition [%]
O=C(/C=C/c1ccc(O)cc1)NCCc1ccc(O)cc1,-15
O=C(c1cc(Cc2n[nH]c(=O)c3ccccc23)ccc1F)N1CCN(C(=O)C2CC2)CC1,-5
CC(C)=CCC[C@](C)(O[C@@H]1O[C@H](CO)[C@@H](O)[C@H](O)[C@H]1O)[C@H]1CC[C@]2(C)[C@@H]1[C@H](O)C[C@@H]1[C@@]3(C)CC[C@H](O[C@@H]4O[C@H](CO)[C@@H](O)[C@H](O)[C@H]4O)C(C)(C)[C@@H]3CC[C@]12C,-1
OCC(O)[C@@H](O)[C@H](O)[C@H](O)CO[C@H]1O[C@H](CO)[C@@H](O)[C@H](O)[C@H]1O (some centres unmarked),-41
COC(=O)N[C@@H](C)CNc1nccc(-c2cn(C(C)C)nc2-c2cc(Cl)cc(NS(C)(=O)=O)c2F)n1,-2
CCN[C@@H]1C[C@H](N)[C@@H](O[C@H]2OC(CN)=CC[C@H]2N)[C@H](O)[C@H]1O[C@H]1OC[C@](C)(O)[C@H](NC)[C@H]1O,6
C=CC(C)(O)CCC=C(C)CCC=C(C)C (mixture of isomers),-15
O=C1C[C@@H](c2ccc(O[C@@H]3O[C@H](CO)[C@@H](O)[C@H](O)[C@H]3O)cc2)Oc2cc(O)cc(O)c21,-24
OC[C@H]1O[C@@H](Oc2cc(O)cc(/C=C/c3ccc(O)c(O)c3)c2)[C@H](O)[C@@H](O)[C@@H]1O,-30
C[C@@H]1O[C@@H](OC[C@H]2O[C@@H](Oc3c(-c4ccc(O)cc4)oc4cc(O)cc(O)c4c3=O)[C@H](O[C@@H]3O[C@@H](C)[C@H](O)[C@@H](O)[C@H]3O)[C@@H](O)[C@@H]2O)[C@H](O)[C@H](O)[C@H]1O,-7
O=C(O)c1ccc(O)c(O)c1,-45
C=CC(=O)N1CCN(c2nc(=O)n(-c3c(C)ccnc3C(C)C)c3nc(-c4c(O)cccc4F)c(F)cc23)[C@@H](C)C1,-0.03
C[C@H](O)[C@H](N)C(=O)O,-46

# Block 3
# SMILES: C[C@H](c1ccc(F)cc1)N(Cc1cccc(C(=O)O)c1)C(=O)c1cnc2ccccc2c1
# Tested at: 1 µM
target,assay,remaining binding [%]
"DMPK (Homo sapiens, UniProt Q09013)","cell-free assay, competition with immobilised ligand",88
"CDK17 (Homo sapiens, UniProt Q00537)","cell-free assay, competition with immobilised ligand",84
"NEK3 (Homo sapiens, UniProt P51956)","cell-free assay, competition with immobilised ligand",87
"CDK19 (Homo sapiens, UniProt Q9BWU1)",competition binding,100
"CDC42BPB (Homo sapiens, UniProt Q9Y5S2)","cell-free assay, competition with immobilised ligand",94
"Non-receptor tyrosine-protein kinase TYK2, JH1 (TYK2, Homo sapiens, UniProt P29597)","cell-free assay, competition with immobilised ligand",100
"FGFR1 (Homo sapiens, UniProt P11362)","cell-free assay, competition with immobilised ligand",100
"ERN1 (Homo sapiens, UniProt O75460)","cell-free assay, competition with immobilised ligand",78
"MAP3K15 (Homo sapiens, UniProt Q6ZN16)","cell-free assay, competition with immobilised ligand",100
"PRKD3 (Homo sapiens, UniProt O94806)","cell-free assay, competition with immobilised ligand",100
"MAP4K2 (Homo sapiens, UniProt Q12851)","cell-free assay, competition with immobilised ligand",100
"WNK3 (Homo sapiens, UniProt Q9BYP7)","cell-free assay, competition with immobilised ligand",87
"MKNK2 (Homo sapiens, UniProt Q9HBH9)","cell-free assay, competition with immobilised ligand",74
"CHUK (Homo sapiens, UniProt O15111)","cell-free assay, competition with immobilised ligand",93
"EPHA8 (Homo sapiens, UniProt P29322)","cell-free assay, competition with immobilised ligand",76
"AAK1 (Homo sapiens, UniProt Q2M2I8)",binding,100
"STK10 (Homo sapiens, UniProt O94804)","cell-free assay, competition with immobilised ligand",89
"FLT3 (Homo sapiens, UniProt P36888, D835V/ITD)","cell-free assay, competition with immobilised ligand",99
"PIK3CA (Homo sapiens, UniProt P42336, E542K)","cell-free assay, competition with immobilised ligand",49
"Ribosomal protein S6 kinase alpha-4, N-terminal kinase domain (RPS6KA4, Homo sapiens, UniProt O75676)","cell-free assay, competition with immobilised ligand",85

# Block 4
# Structure (SMILES): CCC(=O)Nc1ccc2ncnc(Nc3cccc(Br)c3)c2c1
# Read-out: enzyme activity
# Mode: inhibitor
# Tested at: 0.5 µM
# Baseline: control
target,remaining activity
"VRK1 (Homo sapiens, UniProt Q99986)",94.4%
"NTRK2 (Homo sapiens, UniProt Q16620)",77.1%
"RAF1 (Homo sapiens, UniProt P04049)",98.4%
"TAOK1 (Homo sapiens, UniProt Q7L7X3)",79.1%
"PHKG2 (Homo sapiens, UniProt P15735)",109%
"PRKD3 (Homo sapiens, UniProt O94806)",85.9%
"PDGFRB (Homo sapiens, UniProt P09619)",98%
"INSRR (Homo sapiens, UniProt P14616)",98.4%
"DSTYK (Homo sapiens, UniProt Q6XUX3)",91.3%
"RIPK2 (Homo sapiens, UniProt O43353)",71.4%
"PLK1 (Homo sapiens, UniProt P53350)",95.3%
"MAP3K9 (Homo sapiens, UniProt P80192)",92.7%
"ACVR1 (Homo sapiens, UniProt Q04771)",93.7%
"ULK1 (Homo sapiens, UniProt O75385)",103%
"FGFR2 (Homo sapiens, UniProt P21802)",99.8%
"DYRK2 (Homo sapiens, UniProt Q92630)",90.6%
"MAP4K5 (Homo sapiens, UniProt Q9Y4K4)",89%
"SGK3 (Homo sapiens, UniProt Q96BR1)",92.8%
"TNK2 (Homo sapiens, UniProt Q07912)",93.5%
"HCK (Homo sapiens, UniProt P08631)",93%

# Excerpt of the above (block 1):
SMILES,nuclear SOX9 intensity
O=c1cc(N2CCNCC2)oc2c(-c3ccccc3)cccc12,115 % of DMSO
O=C(Nc1ccccc1)N1CCN(c2nc(-c3ccccc3)ns2)CC1,104 % of DMSO
CCCN(CCC)S(=O)(=O)c1ccc(C(=O)O)cc1,86 % of DMSO and 91.7 % of DMSO and 101 % of DMSO
CC(C)[C@H]1CC[C@H](C(=O)N[C@H](Cc2ccccc2)C(=O)O)CC1,90.3 % of DMSO and 98 % of DMSO and 92.1 % of DMSO
